Measured values gathered from unrelated publications.
Numbered parts are unrelated; each lists some results of a single study. Substitutions count along the parent as printed.
UniProt P42684, sequence (whole entry, looked up): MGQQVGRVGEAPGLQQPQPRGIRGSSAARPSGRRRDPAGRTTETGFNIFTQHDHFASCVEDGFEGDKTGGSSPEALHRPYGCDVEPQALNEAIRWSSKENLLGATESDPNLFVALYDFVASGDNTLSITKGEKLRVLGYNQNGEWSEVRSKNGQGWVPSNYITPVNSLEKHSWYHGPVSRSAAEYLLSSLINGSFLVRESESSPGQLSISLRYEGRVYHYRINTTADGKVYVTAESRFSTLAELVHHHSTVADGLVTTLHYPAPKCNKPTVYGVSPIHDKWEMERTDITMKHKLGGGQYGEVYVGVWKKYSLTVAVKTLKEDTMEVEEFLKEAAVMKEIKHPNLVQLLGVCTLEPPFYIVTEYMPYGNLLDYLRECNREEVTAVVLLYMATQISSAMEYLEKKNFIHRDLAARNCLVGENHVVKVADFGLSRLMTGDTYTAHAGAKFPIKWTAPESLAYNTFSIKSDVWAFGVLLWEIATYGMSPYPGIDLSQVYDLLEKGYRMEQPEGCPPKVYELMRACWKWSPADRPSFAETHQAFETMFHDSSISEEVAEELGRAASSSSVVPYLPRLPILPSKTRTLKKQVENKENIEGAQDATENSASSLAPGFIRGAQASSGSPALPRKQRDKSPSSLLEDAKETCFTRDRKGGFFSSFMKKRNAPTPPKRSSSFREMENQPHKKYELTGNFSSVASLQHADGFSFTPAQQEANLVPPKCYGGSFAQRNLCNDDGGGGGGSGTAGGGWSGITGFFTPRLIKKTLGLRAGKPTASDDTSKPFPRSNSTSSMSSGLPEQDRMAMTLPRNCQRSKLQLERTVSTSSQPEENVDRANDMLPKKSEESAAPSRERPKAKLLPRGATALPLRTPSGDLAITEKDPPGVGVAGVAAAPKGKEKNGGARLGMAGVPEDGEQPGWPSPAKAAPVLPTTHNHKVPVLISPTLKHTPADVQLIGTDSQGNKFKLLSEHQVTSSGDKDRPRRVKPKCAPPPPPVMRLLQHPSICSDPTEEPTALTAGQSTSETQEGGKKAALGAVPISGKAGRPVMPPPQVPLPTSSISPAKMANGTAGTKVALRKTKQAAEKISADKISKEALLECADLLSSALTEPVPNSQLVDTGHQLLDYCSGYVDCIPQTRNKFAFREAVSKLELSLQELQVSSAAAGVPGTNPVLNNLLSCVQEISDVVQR
UniProt O94921, sequence (whole entry, looked up): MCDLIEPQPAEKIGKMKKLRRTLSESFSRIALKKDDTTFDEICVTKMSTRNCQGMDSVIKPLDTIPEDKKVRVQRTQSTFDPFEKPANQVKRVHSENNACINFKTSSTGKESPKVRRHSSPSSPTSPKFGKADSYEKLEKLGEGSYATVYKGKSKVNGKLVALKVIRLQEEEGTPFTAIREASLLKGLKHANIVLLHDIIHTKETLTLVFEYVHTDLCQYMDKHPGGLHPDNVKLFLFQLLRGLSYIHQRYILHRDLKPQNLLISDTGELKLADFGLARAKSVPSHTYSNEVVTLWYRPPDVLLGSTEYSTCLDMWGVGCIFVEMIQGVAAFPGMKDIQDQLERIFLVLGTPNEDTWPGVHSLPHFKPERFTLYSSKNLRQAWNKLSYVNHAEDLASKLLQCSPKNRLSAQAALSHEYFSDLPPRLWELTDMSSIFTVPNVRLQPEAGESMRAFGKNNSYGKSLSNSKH
UniProt Q9BUB5, sequence (whole entry, looked up): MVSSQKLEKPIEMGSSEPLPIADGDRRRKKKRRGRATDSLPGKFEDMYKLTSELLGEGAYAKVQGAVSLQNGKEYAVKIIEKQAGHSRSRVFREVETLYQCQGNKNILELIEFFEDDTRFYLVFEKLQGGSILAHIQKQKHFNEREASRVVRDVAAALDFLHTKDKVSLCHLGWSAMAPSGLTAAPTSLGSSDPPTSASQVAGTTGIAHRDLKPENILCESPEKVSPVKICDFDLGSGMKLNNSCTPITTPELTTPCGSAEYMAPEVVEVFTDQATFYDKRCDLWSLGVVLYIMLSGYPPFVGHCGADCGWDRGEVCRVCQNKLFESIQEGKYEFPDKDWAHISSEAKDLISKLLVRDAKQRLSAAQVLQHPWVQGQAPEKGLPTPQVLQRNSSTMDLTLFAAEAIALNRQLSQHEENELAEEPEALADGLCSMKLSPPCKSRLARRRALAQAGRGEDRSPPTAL
UniProt P51451, sequence (whole entry, looked up): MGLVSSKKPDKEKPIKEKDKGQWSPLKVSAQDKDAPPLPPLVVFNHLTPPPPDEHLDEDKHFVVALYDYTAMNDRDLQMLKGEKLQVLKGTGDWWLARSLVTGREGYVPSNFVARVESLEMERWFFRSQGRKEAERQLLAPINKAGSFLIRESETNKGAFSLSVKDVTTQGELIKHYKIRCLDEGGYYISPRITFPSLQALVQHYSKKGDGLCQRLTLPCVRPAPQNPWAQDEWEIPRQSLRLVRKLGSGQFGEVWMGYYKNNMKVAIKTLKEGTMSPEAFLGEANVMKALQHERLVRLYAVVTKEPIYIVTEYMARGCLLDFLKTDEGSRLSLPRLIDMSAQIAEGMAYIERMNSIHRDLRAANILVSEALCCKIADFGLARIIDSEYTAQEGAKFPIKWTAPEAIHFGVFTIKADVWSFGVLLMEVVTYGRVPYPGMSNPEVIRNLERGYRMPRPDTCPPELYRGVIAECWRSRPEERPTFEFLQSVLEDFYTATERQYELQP
UniProt Q8NEB9, sequence (whole entry, looked up): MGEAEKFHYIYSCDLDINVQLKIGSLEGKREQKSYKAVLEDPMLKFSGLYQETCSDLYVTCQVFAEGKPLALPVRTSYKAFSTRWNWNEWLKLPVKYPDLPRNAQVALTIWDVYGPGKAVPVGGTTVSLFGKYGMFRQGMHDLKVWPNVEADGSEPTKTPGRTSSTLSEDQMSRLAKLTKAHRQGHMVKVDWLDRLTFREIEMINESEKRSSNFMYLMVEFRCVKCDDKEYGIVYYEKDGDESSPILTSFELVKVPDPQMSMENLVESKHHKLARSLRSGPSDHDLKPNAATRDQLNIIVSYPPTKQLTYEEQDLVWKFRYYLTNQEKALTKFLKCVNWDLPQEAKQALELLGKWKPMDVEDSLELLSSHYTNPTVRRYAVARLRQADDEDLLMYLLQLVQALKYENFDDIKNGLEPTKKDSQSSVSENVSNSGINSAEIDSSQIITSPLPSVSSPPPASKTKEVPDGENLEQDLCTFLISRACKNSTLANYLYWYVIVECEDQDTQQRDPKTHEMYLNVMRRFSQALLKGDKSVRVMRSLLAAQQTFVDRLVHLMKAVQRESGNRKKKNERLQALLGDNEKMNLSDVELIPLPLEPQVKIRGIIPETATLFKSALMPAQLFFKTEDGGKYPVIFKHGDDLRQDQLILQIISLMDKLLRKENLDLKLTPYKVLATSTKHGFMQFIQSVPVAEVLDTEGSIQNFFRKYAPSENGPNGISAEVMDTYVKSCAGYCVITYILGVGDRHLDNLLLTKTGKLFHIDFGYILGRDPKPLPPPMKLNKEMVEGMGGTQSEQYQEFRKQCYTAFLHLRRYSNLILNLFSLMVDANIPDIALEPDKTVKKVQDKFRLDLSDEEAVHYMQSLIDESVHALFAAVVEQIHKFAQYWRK

Study 1
Compound: Cc1c(NC(=O)c2cc(C(N)=O)nc3cc(F)ccc23)c(C(F)(F)F)nn1Cc1ccc(C#N)cc1
Effect on: cell-free assay
Technique: competition with immobilised ligand
Concentration: 1 µM
It gave 74% for remaining binding (Tyrosine-protein kinase ABL2 (ABL2, Homo sapiens, UniProt P42684)).
It gave 99% for remaining binding (Phosphatidylinositol 3-kinase catalytic subunit type 3 (PIK3C3, Homo sapiens, UniProt Q8NEB9)).
Cyclin-dependent kinase 14 (CDK14, Homo sapiens, UniProt O94921) — remaining binding: 100%.
MAP kinase-interacting serine/threonine-protein kinase 1 (MKNK1, Homo sapiens, UniProt Q9BUB5) — remaining binding: 68%.
It gave 77% for remaining binding (Tyrosine-protein kinase Blk (BLK, Homo sapiens, UniProt P51451)).

Study 2
Target: Homeodomain-interacting protein kinase 4 (HIPK4, Homo sapiens, UniProt Q8NE63)
UniProt Q8NE63, sequence (whole entry, looked up): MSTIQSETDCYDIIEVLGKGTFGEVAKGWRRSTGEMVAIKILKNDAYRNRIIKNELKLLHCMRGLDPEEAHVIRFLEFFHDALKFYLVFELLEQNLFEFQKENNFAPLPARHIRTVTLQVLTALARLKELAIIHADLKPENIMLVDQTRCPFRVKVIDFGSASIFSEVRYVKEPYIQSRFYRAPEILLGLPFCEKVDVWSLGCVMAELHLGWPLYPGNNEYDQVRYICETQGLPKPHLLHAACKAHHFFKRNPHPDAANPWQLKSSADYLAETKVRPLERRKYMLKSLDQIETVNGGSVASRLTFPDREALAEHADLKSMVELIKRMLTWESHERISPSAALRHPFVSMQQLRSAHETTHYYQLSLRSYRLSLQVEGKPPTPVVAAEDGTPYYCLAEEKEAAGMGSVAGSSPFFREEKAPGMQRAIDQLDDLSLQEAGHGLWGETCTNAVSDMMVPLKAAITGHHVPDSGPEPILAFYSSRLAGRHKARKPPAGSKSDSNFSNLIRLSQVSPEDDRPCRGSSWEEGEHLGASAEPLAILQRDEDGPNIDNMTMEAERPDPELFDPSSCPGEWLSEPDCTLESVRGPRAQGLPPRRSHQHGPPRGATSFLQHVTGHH
Effect on: enzyme activity
Action: inhibitor
Concentration: 0.5 µM
Relative to: control
Cc1ccc(Nc2nccc(N(C)c3ccc4c(C)n(C)nc4c3)n2)cc1S(N)(=O)=O gave a remaining activity of 109%.
For Oc1ccc(-c2nc(-c3ccncc3)c(-c3ccc(F)cc3)[nH]2)cc1, the remaining activity was 89.7%.
For COc1cc2ncnc(Nc3ccc(Oc4ccccc4)cc3)c2cc1OC, the remaining activity was 91.8%.
COc1cc2ncnc(Nc3ccc(F)c(Cl)c3)c2cc1OCCCN1CCOCC1 has a remaining activity of 90.4%.
With Cn1c2ccccc2c2c3c(c4c5ccccc5n(CCC#N)c4c21)CNC3=O the remaining activity was 103%.
O=C(O)c1ccc2c3c1cccc3c(=O)n1c3ccccc3nc21 has a remaining activity of 86.9%.
CCOC(=O)c1c(C)[nH]c(/C=C2\C(=O)Nc3ccccc32)c1C has a remaining activity of 90.2%.
C#Cc1cccc(Nc2ncnc3cc(OCCOC)c(OCCOC)cc23)c1 gave a remaining activity of 102%.
O=C1NC(=O)C(c2cn(CCCn3ccnc3)c3ccccc23)=C1Nc1ccccc1 gave a remaining activity of 90.7%.
The remaining activity of O=C(CCCc1ccc(-c2ccccc2F)cc1)Nc1ccc(O)cc1 is reported as 105%.
With O=S(=O)(c1cccc2cnccc12)N1CCCNCC1 the remaining activity was 103%.
With Nc1ncnc2n[nH]c(Nc3ccc(F)cc3)c12 the remaining activity was 98.5%.
For COc1ccc(OC)c2c(=S)c3ccccc3[nH]c12, the remaining activity was 97.3%.

Study 3
Target: CCNA2, cyclin fold, Cln2 fusion (human)
Technique: yeast growth competition, sequencing
Matrix: yeast
Setting: weak parent motif
Relative to: not given
Direction: higher = stronger binding
Starting sequence: WEE2 docking peptide (human); KELRQKLNFSYCE
`E2A` — result for “normalised enrichment score”: 1.47.
For `E13A`, “normalised enrichment score” read 1.04.
Under “normalised enrichment score”, `F9A` is recorded as 0.661.
`Y11A`: “normalised enrichment score” 1.16.
`N8A`: “normalised enrichment score” 0.532.
`C12A` — result for “normalised enrichment score”: 0.579.
`S10A`: “normalised enrichment score” 0.63.

Study 4
Target: Prothrombin, mature alpha-thrombin (F2, Homo sapiens, UniProt P00734)
Technique: aptamer microarray, sandwich
Molecule type: DNA with 2'F-ANA
Matrix: in vitro
Concentration: 200 nM
Setting: whole 15-mer aptamer, many near background
Together with: Cy3 exosite-II aptamer, 400 nM
Direction: higher = stronger binding
Strand: GGTTGGTGTGGTTGG
Under “mean fluorescence intensity”, `2'F-ANA at 1 2 3 5 7 9 10 11` is recorded as 48.2 a.u.
For `2'F-ANA at 1 2 5 6 10 11 12 13 15`, “mean fluorescence intensity” read 47.1 a.u.
`2'F-ANA at 1 3 4 7 8 9 12 13 14`: “mean fluorescence intensity” 79.1 a.u.
`2'F-ANA at 5 7` — result for “mean fluorescence intensity”: 153 a.u.
Under “mean fluorescence intensity”, `2'F-ANA at 1 2 8 9 11 14 15` is recorded as 56.8 a.u.
`2'F-ANA at 1 2 5 6 8 11 14`: “mean fluorescence intensity” 49.7 a.u.
Under “mean fluorescence intensity”, `2'F-ANA at 1 3 4 5 6 8 12 13 14` is recorded as 50.2 a.u.
`2'F-ANA at 2 3 5 8 11 13 14`: “mean fluorescence intensity” 52.7 a.u.

Some of these lines once more (study 2):
For COc1ccc(OC)c2c(=S)c3ccccc3[nH]c12, the remaining activity was 97.3%.
COc1cc2ncnc(Nc3ccc(F)c(Cl)c3)c2cc1OCCCN1CCOCC1 has a remaining activity of 90.4%.
With Nc1ncnc2n[nH]c(Nc3ccc(F)cc3)c12 the remaining activity was 98.5%.
